Results of several laboratories.
A part holds a random share of what one study measured. Values joined by “and” are separate records of one study, mostly repeats; a detail may differ.
Chain of UniProt Q9UHD2 (whole entry, looked up): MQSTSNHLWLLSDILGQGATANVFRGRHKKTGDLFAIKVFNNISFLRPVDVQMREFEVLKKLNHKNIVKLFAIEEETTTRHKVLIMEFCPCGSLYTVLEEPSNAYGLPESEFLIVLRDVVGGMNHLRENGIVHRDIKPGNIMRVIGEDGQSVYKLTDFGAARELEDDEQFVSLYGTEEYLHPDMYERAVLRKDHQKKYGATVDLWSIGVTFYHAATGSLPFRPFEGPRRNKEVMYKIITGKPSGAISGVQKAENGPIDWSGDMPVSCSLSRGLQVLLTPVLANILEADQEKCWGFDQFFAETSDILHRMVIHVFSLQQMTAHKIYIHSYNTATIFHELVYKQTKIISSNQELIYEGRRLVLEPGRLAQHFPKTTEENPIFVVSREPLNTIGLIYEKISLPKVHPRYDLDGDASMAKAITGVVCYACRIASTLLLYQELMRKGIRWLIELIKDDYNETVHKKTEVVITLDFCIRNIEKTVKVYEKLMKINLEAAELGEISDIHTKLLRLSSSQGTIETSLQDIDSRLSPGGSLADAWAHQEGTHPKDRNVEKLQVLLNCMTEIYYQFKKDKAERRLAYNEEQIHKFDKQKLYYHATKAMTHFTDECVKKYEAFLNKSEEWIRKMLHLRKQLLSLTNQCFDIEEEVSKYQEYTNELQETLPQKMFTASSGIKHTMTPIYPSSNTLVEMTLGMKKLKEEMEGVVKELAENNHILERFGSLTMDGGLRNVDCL
Chain of UniProt Q04912 (whole entry, looked up): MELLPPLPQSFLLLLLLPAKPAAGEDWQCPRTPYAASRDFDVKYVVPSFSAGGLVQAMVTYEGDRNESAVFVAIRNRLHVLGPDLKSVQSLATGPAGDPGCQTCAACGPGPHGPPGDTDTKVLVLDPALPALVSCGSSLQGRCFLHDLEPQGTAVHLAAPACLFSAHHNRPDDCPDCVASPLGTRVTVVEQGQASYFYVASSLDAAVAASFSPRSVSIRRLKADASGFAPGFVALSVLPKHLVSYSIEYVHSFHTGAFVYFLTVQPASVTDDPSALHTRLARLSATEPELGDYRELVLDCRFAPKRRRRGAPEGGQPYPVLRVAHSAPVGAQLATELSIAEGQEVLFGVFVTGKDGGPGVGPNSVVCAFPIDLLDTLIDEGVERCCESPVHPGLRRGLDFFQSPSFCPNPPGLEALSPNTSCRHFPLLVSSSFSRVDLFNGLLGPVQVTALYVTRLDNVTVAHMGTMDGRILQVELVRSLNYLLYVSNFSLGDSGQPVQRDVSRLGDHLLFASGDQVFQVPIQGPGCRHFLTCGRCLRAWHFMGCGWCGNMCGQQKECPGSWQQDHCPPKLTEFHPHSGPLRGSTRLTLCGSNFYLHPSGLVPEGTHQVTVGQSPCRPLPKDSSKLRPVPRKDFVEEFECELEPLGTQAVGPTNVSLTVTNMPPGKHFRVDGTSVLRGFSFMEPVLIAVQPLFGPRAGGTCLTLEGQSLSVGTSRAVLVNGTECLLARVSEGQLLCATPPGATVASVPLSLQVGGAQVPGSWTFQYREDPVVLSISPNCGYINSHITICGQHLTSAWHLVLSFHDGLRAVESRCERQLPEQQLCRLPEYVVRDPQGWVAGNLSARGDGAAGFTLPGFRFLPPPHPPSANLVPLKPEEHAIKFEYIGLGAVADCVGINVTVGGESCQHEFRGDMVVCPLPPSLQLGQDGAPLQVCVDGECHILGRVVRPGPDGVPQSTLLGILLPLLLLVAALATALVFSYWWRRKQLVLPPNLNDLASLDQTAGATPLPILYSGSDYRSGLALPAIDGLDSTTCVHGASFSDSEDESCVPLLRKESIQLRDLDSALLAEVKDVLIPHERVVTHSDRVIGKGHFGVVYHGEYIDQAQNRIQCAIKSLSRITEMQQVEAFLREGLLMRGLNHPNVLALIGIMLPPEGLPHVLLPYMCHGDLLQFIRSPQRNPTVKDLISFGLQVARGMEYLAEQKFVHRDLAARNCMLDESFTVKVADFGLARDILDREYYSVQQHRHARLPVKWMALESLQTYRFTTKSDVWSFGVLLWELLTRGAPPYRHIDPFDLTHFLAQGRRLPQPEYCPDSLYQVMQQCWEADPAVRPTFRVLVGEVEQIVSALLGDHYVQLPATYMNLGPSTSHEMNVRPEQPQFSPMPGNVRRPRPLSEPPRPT
Chain of UniProt P10398 (whole entry, looked up): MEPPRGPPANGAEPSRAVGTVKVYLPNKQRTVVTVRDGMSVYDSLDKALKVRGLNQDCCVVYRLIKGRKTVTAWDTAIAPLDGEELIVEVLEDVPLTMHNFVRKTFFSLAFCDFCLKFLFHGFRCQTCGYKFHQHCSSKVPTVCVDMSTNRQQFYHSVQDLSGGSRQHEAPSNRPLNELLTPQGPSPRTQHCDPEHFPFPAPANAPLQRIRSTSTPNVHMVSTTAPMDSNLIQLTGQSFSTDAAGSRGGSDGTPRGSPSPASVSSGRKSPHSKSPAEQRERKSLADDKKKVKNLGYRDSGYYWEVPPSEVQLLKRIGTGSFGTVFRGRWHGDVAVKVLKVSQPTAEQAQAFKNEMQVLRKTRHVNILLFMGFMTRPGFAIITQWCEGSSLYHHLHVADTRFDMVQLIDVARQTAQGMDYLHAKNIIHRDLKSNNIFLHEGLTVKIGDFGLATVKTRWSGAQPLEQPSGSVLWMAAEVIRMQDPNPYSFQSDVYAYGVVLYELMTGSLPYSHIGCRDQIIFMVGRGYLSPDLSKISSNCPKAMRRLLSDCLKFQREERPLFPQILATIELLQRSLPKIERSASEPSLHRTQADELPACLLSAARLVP
Chain of UniProt P30291 (whole entry, looked up): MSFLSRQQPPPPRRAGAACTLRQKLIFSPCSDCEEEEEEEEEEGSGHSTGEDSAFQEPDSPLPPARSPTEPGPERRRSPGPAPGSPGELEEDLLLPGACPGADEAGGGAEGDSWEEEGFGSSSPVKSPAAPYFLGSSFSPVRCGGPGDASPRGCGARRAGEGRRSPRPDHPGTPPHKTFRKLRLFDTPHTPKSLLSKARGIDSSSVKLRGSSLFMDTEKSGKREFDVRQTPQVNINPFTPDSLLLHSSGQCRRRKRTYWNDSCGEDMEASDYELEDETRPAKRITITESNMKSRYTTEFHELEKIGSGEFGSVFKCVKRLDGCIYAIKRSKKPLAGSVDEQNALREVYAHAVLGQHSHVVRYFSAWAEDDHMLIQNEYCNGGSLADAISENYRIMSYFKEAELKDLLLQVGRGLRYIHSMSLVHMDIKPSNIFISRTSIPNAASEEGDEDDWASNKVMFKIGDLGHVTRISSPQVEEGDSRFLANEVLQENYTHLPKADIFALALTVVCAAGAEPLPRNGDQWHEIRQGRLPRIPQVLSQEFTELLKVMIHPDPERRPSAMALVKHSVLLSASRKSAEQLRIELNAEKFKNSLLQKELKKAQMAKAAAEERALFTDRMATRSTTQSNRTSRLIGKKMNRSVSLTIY
Chain of UniProt Q9UL54 (whole entry, looked up): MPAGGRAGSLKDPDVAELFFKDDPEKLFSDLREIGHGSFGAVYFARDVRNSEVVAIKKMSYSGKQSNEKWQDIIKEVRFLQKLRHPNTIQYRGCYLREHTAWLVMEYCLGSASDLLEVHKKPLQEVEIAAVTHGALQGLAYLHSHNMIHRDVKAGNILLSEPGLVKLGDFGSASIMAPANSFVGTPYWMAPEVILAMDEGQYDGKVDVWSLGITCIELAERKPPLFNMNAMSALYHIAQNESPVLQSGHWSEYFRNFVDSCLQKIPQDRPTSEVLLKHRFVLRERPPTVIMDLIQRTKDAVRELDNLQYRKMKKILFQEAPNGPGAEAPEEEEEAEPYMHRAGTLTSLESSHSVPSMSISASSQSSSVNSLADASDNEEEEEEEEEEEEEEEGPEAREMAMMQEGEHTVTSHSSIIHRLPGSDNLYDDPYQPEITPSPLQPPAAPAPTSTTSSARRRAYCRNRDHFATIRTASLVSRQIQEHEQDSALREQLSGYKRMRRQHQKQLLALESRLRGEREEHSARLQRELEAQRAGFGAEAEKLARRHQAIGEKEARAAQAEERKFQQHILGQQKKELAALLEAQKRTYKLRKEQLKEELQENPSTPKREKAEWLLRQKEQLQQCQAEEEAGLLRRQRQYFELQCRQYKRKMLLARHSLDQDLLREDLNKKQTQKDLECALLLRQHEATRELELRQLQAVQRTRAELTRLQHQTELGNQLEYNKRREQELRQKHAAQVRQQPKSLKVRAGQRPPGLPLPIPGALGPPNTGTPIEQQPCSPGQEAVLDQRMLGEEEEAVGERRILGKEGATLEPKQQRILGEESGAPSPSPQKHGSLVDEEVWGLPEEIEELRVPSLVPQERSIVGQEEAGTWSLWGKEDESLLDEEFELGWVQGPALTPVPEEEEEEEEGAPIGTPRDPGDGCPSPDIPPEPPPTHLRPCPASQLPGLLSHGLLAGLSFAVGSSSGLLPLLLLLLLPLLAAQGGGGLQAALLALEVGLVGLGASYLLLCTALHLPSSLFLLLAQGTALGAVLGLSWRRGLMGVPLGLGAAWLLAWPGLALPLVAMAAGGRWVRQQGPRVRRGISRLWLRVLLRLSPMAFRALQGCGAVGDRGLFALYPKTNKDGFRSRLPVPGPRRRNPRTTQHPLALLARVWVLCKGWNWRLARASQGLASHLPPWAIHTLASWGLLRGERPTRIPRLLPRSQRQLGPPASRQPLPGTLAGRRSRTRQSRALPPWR

Study 1
Compound: CC(=O)N[C@@H](Cc1c[nH]c2ccccc12)C(=O)N[C@@H](CCC(=O)C=[N+]=[N-])C(=O)OC(C)C
| species | route | dose | time | tumour volume |
| --- | --- | --- | --- | --- |
| mice, MC-38 tumour rechallenge |  | 0.26 mg/kg | day 39 after injection | 0 mm3 |
| mouse, EL4 tumour | subcutaneous | 1 mg/kg | day 7 | 385 mm3 and 557 mm3 and 389 mm3 and 494 mm3 and 280 mm3 and 469 mm3 |
| CES1-/- mice, OVA-expressing MC-38 tumour |  | dose not given | day 22 after injection | 10 mm3 and 103 mm3 and 0 mm3 and 4 mm3 |
| mice, MC-38 tumour rechallenge |  | 1 mg/kg | day 18 after injection | 0 mm3 |
| mouse, EL4 tumour | subcutaneous | 0.3 mg/kg | day 8 | 741 mm3 and 758 mm3 and 531 mm3 and 330 mm3 and 402 mm3 and 228 mm3 |
| mouse, EL4 tumour | subcutaneous | 0.1 mg/kg | day 17 | 694 mm3 and 559 mm3 and 878 mm3 and 871 mm3 and 2410 mm3 and 78.4 mm3 |

Study 2
Target: Alpha-2B adrenergic receptor (ADRA2B, Homo sapiens, UniProt P18089)
Chain of UniProt P18089 (whole entry, looked up): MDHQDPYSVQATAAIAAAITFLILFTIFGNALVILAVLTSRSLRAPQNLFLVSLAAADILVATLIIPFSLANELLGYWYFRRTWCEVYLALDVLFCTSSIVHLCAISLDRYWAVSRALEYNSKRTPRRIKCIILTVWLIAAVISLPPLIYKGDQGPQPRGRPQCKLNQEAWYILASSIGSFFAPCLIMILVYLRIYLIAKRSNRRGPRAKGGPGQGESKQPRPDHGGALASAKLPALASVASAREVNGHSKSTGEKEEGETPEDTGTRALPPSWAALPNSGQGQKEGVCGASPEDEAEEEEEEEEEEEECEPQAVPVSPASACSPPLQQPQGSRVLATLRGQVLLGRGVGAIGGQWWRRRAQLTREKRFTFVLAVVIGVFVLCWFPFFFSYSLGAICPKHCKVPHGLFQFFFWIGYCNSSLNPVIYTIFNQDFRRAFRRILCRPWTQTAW
Observed: binding
Method: radioligand binding
Concentration: 10 µM
| SMILES | inhibition |
| --- | --- |
| CN(C)C(=O)Cn1cc(-c2nc([C@@](C)(c3ccc(-c4cnc(N)nc4)cc3)C3CC3)no2)cn1 | -19.2% |
| COCCc1ccc(-c2c(C)nc3c(N4CCOCC4)ccnn23)cn1 | 78.2% |
| CN1CCN(C(=O)C(C)(C)c2ccc(C(=O)Nc3cn4cc(-c5ccncc5)ccc4n3)cc2)CC1 | 19.3% |
| CCOCCn1cc(C(=O)Nc2ccc(-n3nc(-c4cccnc4)cc3C(F)(F)F)cn2)ccc1=O | 4.9% |
| CS(=O)(=O)NCC[C@H](NC(=O)c1cncc2c1cnn2-c1ccc(F)cc1)c1ccnc(S(C)(=O)=O)c1 | -2.26% |
| O[C@]1(C(F)(F)F)CCCC[C@H]1Nc1ccc(F)cc1 | -20.1% |
| O=C(Nc1cnc(Oc2ccc(F)cc2)nc1)N1CCc2ncccc2[C@@H]1c1ccc(F)cc1 | 9.66% |
| CC(=O)c1c(NS(C)(=O)=O)c2cc(-c3ccc(Cl)cc3)c(-c3ccc(Cl)cc3Cl)nc2n(C)c1=O | 67.2% |

Study 3
Structure (SMILES): O=Nc1c(-c2c(O)[nH]c3cc(Br)ccc23)[nH]c2ccccc12
Observed: enzyme activity
Action: inhibitor
Concentration: 0.5 µM
Reference: control
| target | remaining activity |
| --- | --- |
| TBK1 (Homo sapiens, UniProt Q9UHD2) | 62.1% |
| NEK6 (Homo sapiens, UniProt Q9HC98) | 99.9% |
| MST1R (Homo sapiens, UniProt Q04912) | 98.7% |
| FGFR3 (Homo sapiens, UniProt P22607) | 54.6% |
| ARAF (Homo sapiens, UniProt P10398) | 99.8% |
| TAOK2 (Homo sapiens, UniProt Q9UL54) | 92.1% |
| MAPK3 (Homo sapiens, UniProt P27361) | 83.3% |
| WEE1 (Homo sapiens, UniProt P30291) | 96% |
| RPS6KA2 (Homo sapiens, UniProt Q15349) | 33.7% |
| EPHA3 (Homo sapiens, UniProt P29320) | 81.9% |
| FGFR1 (Homo sapiens, UniProt P11362) | 45.1% |
| NEK1 (Homo sapiens, UniProt Q96PY6) | 93.8% |
| JAK3 (Homo sapiens, UniProt P52333) | 53.3% |
| LCK (Homo sapiens, UniProt P06239) | 39% |

Study 4
Species: human
Matrix: microsomes or S9
Concentration: 2 µM
Time: 0.5 h
| Compound | remaining compound [%] |
| --- | --- |
| Cc1nc2sc(C(=O)NC(C)(C)C)c(N)c2c(C)c1C | 5.12 |
| Fc1ccc2onc(-c3cnc4c(c3)COc3ccccc3-4)c2c1 | 5.02 |
| Cc1cc(C(=O)NCC2(O)CCCC2(C)C)[nH]n1 (centres unmarked) | 91.6 |
| COc1ccccc1CNC(=O)c1c(OC)cc(=O)n2c1CCCC2 | > 99 |
| Cc1nc(NC(C)Cc2ccccc2)c2sc3nc4c(cc3c2n1)COC(C)(C)C4 (centres unmarked) | 81.9 |
| C[C@]12CC[C@@H]3c4ccc(O)cc4CC[C@H]3[C@@H]1CC[C@@H]2O | > 99.9 |
| CCOC(=O)C(=Cc1cn(-c2ccccc2)nc1-c1ccc(OC)c(OC)c1)C(=O)OCC | 0.0266 |

For quick reference, copied from above (study 4):
| Compound | remaining compound [%] |
| --- | --- |
| Cc1nc(NC(C)Cc2ccccc2)c2sc3nc4c(cc3c2n1)COC(C)(C)C4 (centres unmarked) | 81.9 |
| C[C@]12CC[C@@H]3c4ccc(O)cc4CC[C@H]3[C@@H]1CC[C@@H]2O | > 99.9 |
